Results pooled from the literature.
Compare with care: the assays were run in different laboratories. ± marks the error that the study gave.
UniProt A0A109QYD3, sequence (whole entry, looked up): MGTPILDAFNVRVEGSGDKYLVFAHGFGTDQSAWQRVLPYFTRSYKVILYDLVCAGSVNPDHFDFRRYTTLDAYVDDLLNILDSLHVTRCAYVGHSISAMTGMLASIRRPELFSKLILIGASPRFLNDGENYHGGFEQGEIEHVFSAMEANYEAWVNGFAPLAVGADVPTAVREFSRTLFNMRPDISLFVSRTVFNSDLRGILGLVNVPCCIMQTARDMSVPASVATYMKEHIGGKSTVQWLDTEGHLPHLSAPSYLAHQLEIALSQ
UniProt P26038, sequence (whole entry, looked up): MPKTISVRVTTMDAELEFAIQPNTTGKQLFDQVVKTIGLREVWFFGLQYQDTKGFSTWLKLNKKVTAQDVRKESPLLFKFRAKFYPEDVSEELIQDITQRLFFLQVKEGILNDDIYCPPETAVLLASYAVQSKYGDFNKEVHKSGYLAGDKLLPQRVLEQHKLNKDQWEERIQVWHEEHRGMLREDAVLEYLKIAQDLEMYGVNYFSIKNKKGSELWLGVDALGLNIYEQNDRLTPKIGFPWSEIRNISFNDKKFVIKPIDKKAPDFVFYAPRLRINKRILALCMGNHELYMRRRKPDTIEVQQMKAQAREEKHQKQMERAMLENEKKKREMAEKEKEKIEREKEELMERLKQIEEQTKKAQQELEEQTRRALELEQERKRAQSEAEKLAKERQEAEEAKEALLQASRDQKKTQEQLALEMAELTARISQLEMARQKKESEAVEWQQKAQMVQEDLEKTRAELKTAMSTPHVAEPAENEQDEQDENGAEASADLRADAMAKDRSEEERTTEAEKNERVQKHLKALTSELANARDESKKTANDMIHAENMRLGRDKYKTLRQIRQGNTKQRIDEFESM
UniProt P22629, sequence (whole entry, looked up): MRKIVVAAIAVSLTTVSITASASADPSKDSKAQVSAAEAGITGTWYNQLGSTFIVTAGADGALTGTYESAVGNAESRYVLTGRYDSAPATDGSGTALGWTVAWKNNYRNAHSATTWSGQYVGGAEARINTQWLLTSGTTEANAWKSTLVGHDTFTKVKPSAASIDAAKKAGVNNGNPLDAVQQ
UniProt Q8I2X3, sequence (whole entry, looked up): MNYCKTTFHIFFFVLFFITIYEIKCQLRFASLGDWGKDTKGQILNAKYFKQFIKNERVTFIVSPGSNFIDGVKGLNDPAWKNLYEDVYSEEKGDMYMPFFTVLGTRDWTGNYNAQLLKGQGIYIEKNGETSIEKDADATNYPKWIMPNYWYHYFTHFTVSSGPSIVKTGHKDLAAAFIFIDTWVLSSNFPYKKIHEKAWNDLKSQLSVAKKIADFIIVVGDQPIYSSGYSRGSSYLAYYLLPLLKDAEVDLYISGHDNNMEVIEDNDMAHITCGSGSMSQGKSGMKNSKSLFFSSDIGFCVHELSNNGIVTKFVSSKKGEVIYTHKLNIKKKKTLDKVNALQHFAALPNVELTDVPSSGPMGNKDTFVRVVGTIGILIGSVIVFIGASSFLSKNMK
UniProt P31554, sequence (whole entry, looked up): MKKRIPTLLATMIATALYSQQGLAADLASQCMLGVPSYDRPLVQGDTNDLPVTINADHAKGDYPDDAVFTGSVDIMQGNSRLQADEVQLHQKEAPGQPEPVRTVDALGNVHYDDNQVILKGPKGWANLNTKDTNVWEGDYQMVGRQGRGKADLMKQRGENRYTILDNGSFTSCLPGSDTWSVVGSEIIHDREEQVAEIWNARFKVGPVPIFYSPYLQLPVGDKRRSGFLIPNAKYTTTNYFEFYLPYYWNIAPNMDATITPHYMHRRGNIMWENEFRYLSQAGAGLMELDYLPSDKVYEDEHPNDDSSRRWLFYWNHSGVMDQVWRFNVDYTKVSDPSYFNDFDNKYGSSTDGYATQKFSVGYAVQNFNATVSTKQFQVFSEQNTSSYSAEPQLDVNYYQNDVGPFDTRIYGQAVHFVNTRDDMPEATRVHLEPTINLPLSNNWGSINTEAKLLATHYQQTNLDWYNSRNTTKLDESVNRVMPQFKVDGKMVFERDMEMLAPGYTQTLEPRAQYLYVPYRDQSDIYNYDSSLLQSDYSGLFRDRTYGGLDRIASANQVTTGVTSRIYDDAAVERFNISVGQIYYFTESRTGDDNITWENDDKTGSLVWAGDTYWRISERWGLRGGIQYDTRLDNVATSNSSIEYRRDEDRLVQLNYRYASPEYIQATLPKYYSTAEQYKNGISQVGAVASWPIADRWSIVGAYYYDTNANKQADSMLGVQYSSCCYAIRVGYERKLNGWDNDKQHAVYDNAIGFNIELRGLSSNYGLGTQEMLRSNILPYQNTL
UniProt P46587, sequence (whole entry, looked up): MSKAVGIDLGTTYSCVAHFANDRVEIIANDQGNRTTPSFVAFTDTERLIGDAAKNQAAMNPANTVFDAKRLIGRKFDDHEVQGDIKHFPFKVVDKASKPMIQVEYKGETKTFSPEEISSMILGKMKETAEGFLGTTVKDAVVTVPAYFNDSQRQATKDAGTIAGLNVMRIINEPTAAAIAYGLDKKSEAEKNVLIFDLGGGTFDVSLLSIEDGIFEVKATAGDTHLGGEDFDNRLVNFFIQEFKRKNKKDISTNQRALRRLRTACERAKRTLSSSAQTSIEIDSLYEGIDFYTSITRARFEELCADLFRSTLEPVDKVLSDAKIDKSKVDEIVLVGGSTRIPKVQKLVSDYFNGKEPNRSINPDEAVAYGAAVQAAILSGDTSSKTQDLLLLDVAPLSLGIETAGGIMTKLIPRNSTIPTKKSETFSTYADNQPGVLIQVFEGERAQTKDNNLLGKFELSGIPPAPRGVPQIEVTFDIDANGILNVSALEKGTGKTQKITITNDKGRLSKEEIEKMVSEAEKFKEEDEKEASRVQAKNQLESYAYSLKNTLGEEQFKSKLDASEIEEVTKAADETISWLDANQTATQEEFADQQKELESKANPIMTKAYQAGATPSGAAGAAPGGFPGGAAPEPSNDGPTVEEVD
UniProt P15328, sequence (whole entry, looked up): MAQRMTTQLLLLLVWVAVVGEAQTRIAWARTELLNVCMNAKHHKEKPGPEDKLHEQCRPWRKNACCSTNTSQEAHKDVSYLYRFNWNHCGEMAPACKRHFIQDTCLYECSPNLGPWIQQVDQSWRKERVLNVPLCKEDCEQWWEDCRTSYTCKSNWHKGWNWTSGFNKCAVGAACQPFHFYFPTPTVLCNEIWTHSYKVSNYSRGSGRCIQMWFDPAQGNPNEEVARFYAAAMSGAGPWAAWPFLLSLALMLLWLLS
UniProt P22607, sequence (whole entry, looked up): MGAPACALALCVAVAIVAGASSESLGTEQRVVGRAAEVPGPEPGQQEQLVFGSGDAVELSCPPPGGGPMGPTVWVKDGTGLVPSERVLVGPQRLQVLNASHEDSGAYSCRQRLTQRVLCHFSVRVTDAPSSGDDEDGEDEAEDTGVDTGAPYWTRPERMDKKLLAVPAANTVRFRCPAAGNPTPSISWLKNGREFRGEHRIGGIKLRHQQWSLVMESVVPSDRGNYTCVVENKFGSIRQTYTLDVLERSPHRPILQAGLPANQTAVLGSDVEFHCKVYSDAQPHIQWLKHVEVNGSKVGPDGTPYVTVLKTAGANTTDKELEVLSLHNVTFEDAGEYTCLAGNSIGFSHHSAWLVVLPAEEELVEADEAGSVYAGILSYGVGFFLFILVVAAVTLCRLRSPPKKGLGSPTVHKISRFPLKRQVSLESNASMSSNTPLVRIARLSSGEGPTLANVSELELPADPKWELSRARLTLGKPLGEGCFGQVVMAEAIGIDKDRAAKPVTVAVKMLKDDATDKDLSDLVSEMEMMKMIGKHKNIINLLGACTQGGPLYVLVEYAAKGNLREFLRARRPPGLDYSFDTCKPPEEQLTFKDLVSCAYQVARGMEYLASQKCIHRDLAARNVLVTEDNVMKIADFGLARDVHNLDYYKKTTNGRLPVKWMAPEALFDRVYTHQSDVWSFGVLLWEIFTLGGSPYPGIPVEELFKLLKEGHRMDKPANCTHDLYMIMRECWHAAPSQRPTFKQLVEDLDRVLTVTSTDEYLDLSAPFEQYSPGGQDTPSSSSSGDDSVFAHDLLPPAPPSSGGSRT
UniProt P0ADC1, sequence (whole entry, looked up): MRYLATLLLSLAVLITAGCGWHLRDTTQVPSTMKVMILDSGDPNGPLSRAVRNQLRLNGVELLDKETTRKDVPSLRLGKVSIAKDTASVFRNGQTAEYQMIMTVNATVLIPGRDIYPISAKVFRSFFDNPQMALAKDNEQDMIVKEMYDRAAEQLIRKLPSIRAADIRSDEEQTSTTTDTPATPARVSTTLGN
UniProt Q96T88, sequence (whole entry, looked up): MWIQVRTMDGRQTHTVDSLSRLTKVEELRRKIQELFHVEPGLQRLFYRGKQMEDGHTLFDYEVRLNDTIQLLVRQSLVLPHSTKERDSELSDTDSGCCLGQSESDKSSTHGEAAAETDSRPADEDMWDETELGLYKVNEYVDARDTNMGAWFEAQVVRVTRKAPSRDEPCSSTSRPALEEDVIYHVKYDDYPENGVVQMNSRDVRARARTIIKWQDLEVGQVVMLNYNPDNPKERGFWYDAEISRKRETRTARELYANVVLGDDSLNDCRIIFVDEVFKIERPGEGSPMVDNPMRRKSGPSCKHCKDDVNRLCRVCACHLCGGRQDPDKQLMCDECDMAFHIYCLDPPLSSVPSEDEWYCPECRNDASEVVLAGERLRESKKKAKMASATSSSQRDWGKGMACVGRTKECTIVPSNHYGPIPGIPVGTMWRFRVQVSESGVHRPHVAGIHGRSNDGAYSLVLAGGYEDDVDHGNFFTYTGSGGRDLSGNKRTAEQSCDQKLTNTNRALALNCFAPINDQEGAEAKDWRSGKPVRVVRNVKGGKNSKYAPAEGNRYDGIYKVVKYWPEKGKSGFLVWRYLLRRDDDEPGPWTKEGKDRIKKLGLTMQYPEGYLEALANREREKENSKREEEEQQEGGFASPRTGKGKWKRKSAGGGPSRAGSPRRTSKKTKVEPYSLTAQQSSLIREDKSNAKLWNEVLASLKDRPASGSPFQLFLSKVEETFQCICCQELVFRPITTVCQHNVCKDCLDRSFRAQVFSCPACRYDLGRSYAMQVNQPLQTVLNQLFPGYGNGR

Compound	target	assay	system	conditions	Kd [nM]
C[C@H](N)C(=O)N[C@@H](CCCNC(=N)N)C(=O)N[C@H](C(=O)N[C@@H](CCCCN)C(=O)N[C@@H](CCC(N)=O)C(=O)N[C@H](C(=O)N[C@@H](C)C(=O)N[C@@H](CCCNC(=N)N)C(=O)N[C@@H](CCCCN)C(=O)N[C@@H](CO)C(=O)N[C@H](C(=O)NCC(=O)NCC(=O)N[C@@H](CCCCN)C(=O)N[C@@H](C)C(=O)O)[C@@H](C)O)[C@@H](C)O)[C@@H](C)OP(=O)(O)O	E3 ubiquitin-protein ligase UHRF1, PHD domain (UHRF1, Homo sapiens, UniProt Q96T88)	binding			> 500000
Nc1nc2ncc(CNc3ccc(C(=O)N[C@@H](CCC(=O)NCCOCCOCCNC(=O)CN4CCN5CCN(CC4)CC(=O)[O][Al]([F])[O]C(=O)C5)C(=O)O)cc3)nc2c(=O)[nH]1 [fluorine-18 labelled]	FOLR1 (Homo sapiens, UniProt P15328)	radioligand saturation binding	KB xenograft homogenate		0.7
CC[C@H](C)[C@H](NC(=O)[C@H](Cc1ccccc1)NC(=O)[C@H](CO)NC(=O)CN)C(=O)N[C@@H](Cc1c[nH]cn1)C(=O)N[C@@H](CO)C(=O)N[C@H](C(=O)N1CCC[C@H]1C(=O)N[C@@H](CCCNC(=N)N)C(=O)N[C@@H](Cc1c[nH]cn1)C(=O)O)C(C)C	Angiopoietin-2 (ANGPT2, Homo sapiens, UniProt O15123)	binding, bio-layer interferometry			3430
Cc1cc(=O)oc2c(F)c(OC3C=CC(=O)O3)c(F)cc12 (racemic)	RMS3 (Lathyrus oleraceus, UniProt A0A109QYD3)	binding, fluorescence			21000
CC(=O)NC1C(O)CC(OC2C(O)C(CO)OC(OC3C(O)C(CO)OC(O)C3NC(C)=O)C2O)(C(=O)O)OC1C(O)C(O)CO (stereo not shown)	Intermedilysin, domain 4 (Streptococcus intermedius, UniProt Q9LCB8)	binding			568
CC[C@H](C)[C@H](NC(=O)[C@@H](NC(=O)[C@@H]1CCCN1C(=O)[C@@H](NC(=O)[C@@H]1CCCN1C(=O)[C@H](CCCCN)NC(=O)[C@H](CCCCN)NC(=O)[C@H](CO)NC(=O)CNC(=O)CCOCCOCCOCCOCc1cn(CCCNC(=O)CCC2=[N+]3C(=Cc4c(C)cc(C)n4[B-]3(F)F)C=C2)nn1)C(C)C)[C@@H](C)CC)C(=O)N[C@@H](Cc1ccc(O)cc1)C(=O)N[C@H]1CSSC[C@@H](C(=O)N[C@@H](CCC(N)=O)C(=O)N[C@@H](CCCNC(=N)N)C(=O)N[C@@H](CCSC)C(=O)O)NC(=O)[C@H](CCCCN)NC(=O)CNC(=O)[C@H]([C@@H](C)O)NC(=O)[C@H](CCCNC(=N)N)NC(=O)[C@H](CCCNC(=N)N)NC(=O)[C@H](CC(N)=O)NC1=O	lptE/lptD (Escherichia coli, UniProt P0ADC1+P31554)	binding, fluorescence polarization		pH 8.0, 20 °C	34 ± 5
C[C@H](NC(=O)[C@H](Cc1c[nH]cn1)NC(=O)[C@H](CO)NC(=O)[C@H](CC(=O)O)NC(=O)CCCC[C@@H]1SC[C@@H]2NC(=O)N[C@@H]21)C(=O)N[C@@H](CCCCN)C(=O)N[C@@H](CCCNC(=N)N)C(=O)N[C@@H](Cc1c[nH]cn1)C(=O)N[C@@H](Cc1c[nH]cn1)C(=O)NCC(=O)N[C@@H](Cc1ccc(O)cc1)C(=O)N[C@@H](CCCCN)C(=O)N[C@@H](CCCNC(=N)N)C(=O)N[C@@H](CCCCN)C(=O)N[C@@H](Cc1ccccc1)C(=O)N[C@@H](Cc1c[nH]cn1)C(=O)N[C@@H](CCC(=O)O)C(=O)N[C@@H](CCCCN)C(=O)N[C@@H](Cc1c[nH]cn1)C(=O)N[C@@H](Cc1c[nH]cn1)C(=O)N[C@@H](CO)C(=O)N[C@@H](Cc1c[nH]cn1)C(=O)N[C@@H](CCCNC(=N)N)C(=O)NCC(=O)N[C@@H](Cc1ccc(O)cc1)C(=O)O	Heat shock protein SSA2 (SSA2, Candida albicans, UniProt P46587)	FPLC gel filtration		pH 7.4, added: ATP 1 mM	400 ± 100
COc1ccc2cc1Oc1cc3c(cc1OC)CCN(C)C3Cc1ccc(cc1)Oc1c(O)c(OC)cc3c1C(C2)N(C)CC3 (stereo not shown)	Glideosome-associated protein 50 (GAP50, Plasmodium falciparum, UniProt Q8I2X3)	surface plasmon resonance			< 75000
CSCC[C@H](NC(=O)[C@H](CCC(N)=O)NC(=O)CNC(=O)[C@H](CCC(N)=O)NC(=O)[C@H](CO)NC(=O)[C@@H]1CCCN1C(=O)[C@H](CCSC)NC(=O)[C@@H](NC(=O)[C@H](CC(C)C)NC(=O)[C@H](CO)NC(=O)[C@H](CC(C)C)NC(=O)[C@@H](NC(=O)[C@@H](NC(=O)[C@H](CO)NC(=O)[C@@H](NC(=O)[C@H](CCCCN)NC(=O)[C@H](CO)NC(=O)[C@@H](NC(=O)[C@H](CO)NC(=O)[C@H](CCC(N)=O)NC(=O)[C@H](C)NC(=O)[C@H](CO)NC(=O)[C@H](CO)NC(=O)[C@H](Cc1ccc(O)cc1)NC(=O)[C@@H]1CCCN1C(=O)[C@@H](NC(=O)[C@H](CO)NC(=O)[C@@H](NC(=O)[C@@H]1CCCN1C(=O)[C@H](Cc1ccc(O)cc1)NC(=O)[C@@H](NC(=O)[C@H](CCCNC(=N)N)NC(=O)CNC(=O)CNC(=O)[C@@H]1CCCN1C(=O)[C@H](C)NC(=O)[C@@H]1CCCN1C(=O)[C@@H](NC(=O)[C@@H]1CCCN1C(=O)[C@@H](NC(=O)[C@@H]1CCCN1C(=O)[C@H](CCC(N)=O)NC(=O)[C@H](CO)NC(=O)[C@H](CCSC)NC(=O)[C@@H](N)CCC(=O)O)[C@@H](C)O)[C@@H](C)O)C(C)C)C(C)C)C(C)C)[C@@H](C)O)[C@@H](C)O)C(C)C)[C@@H](C)O)C(C)C)C(=O)N[C@H](C(=O)O)C(C)C	MAPK11 (Homo sapiens, UniProt Q15759)	binding, isothermal titration calorimetry		25 °C	1500
CC(C)[C@@H]1NC(=O)[C@H](CCC(N)=O)NC(=O)[C@@H]2CCCN2C(=O)[C@H](Cc2c[nH]cn2)NC(=O)CNC(=O)[C@@H](N)CSSC[C@@H](C(=O)NCC(N)=O)NC(=O)[C@@H]2CCCN2C1=O	Streptavidin (Streptomyces avidinii, UniProt P22629)				19400
C#CC[C@H](NC(=O)CNC(=O)[C@H](CO)NC(=O)[C@H](CCCCN)NC(=O)[C@H](C)N(C)C(=O)[C@H](C)NC(=O)[C@@H](NC(=O)[C@@H](NC(=O)[C@H](CCCNC(=N)N)NC(=O)[C@H](Cc1c[nH]cn1)NC(=O)[C@@H]1CCCN1C(=O)[C@H](Cc1c[nH]c2ccccc12)NC(=O)[C@@H](N)CCSC)C(C)C)[C@@H](C)O)C(=O)O	Microtubule-associated protein 1 light chain 3 alpha (Homo sapiens, UniProt Q9H492)	fluorescence polarization			375 ± 157
CC(C)C[C@@H]1NC(=O)[C@H](Cc2ccc(O)cc2)NC(=O)[C@H](CCCCN)NC(=O)[C@H](CCCNC(=N)N)NC(=O)[C@@H](Cc2ccc(O)cc2)NC(=O)CSC[C@@H](C(=O)NCC(N)=O)NC(=O)[C@H](Cc2c[nH]c3ccccc23)NC(=O)[C@H](Cc2c[nH]c3ccccc23)NC(=O)[C@H](Cc2ccccc2)NC(=O)[C@H](CCCNC(=N)N)NC(=O)[C@H](CCC(=O)O)NC(=O)[C@H](Cc2ccc(O)cc2)NC1=O	Protein Wnt-3a, with afamin-Fc (Mus musculus, UniProt P27467)	binding, SPR steady-state		Fc-captured Wnt3a-afamin-Fc	319
CC[C@H](C)[C@H](NC(=O)[C@H](Cc1ccc(O)cc1)NC(=O)[C@H](CCC(=O)O)NC(=O)[C@H](Cc1c[nH]c2ccccc12)NC(=O)[C@H](CO)NC(=O)[C@H](CO)NC(=O)CNC(=O)CNC(=O)[C@H](CC(=O)O)NC(=O)[C@@H](N)CCC(=O)O)C(=O)N[C@@H](Cc1c[nH]c2ccccc12)C(=O)N[C@H](C(=O)N[C@@H](CC(C)C)C(=O)N1CCC[C@H]1C(=O)N[C@@H](CO)C(=O)NCC(=O)O)[C@@H](C)O	Moesin (Homo sapiens, UniProt P26038)	binding, ITC			~45
CC[C@H](C)[C@H](NC(=O)[C@H](CO)NC(=O)[C@H](CO)NC(=O)[C@H](CCC(=O)O)NC(=O)[C@H](CCC(=O)O)NC(=O)[C@H](CCCCN)NC(=O)[C@H](CO)NC(=O)[C@@H](NC(=O)[C@H](CO)NC(=O)[C@H](CC(C)C)NC(=O)[C@H](Cc1ccccc1)NC(=O)[C@H](CCCNC(=N)N)NC(=O)[C@H](C)NC(=O)[C@H](Cc1ccccc1)NC(=O)[C@H](Cc1ccccc1)NC(=O)[C@@H]1CCCN1C(=O)[C@H](CC(C)C)NC(=O)[C@H](C)NC(=O)[C@H](CCCCN)NC(=O)CNC(=O)[C@H](CCC(N)=O)NC(=O)[C@H](CCC(N)=O)NC(=O)[C@H](CC(=O)O)NC(=O)[C@H](CC(N)=O)NC(=O)[C@@H]1CCCN1C(=O)[C@H](Cc1ccc(O)cc1)NC(=O)[C@H](C)NC(=O)[C@@H](N)CCSC)C(C)C)C(=O)N[C@@H](CCCCN)C(=O)N[C@@H](CO)C(=O)N1CCC[C@H]1C(=O)N[C@@H](CO)C(=O)N1CCC[C@H]1C(=O)N[C@@H](CC(=O)O)C(=O)N[C@@H](Cc1c[nH]cn1)C(=O)N[C@@H](CCC(=O)O)C(=O)N[C@H](C(=O)N[C@@H](CO)C(=O)N[C@H](C(=O)N[C@@H](CCCNC(=N)N)C(=O)N[C@@H](CCCCN)C(=O)N[C@@H](Cc1ccc(O)cc1)C(=O)N1CCC[C@H]1C(=O)N[C@@H](CO)C(=O)N[C@@H](CC(=O)O)C(=O)N[C@@H](Cc1c[nH]c2ccccc12)C(=O)N[C@@H](CCC(=O)O)C(=O)N[C@@H](CCC(=O)O)C(=O)N[C@@H](Cc1c[nH]c2ccccc12)C(=O)O)[C@@H](C)O)[C@@H](C)CC	uncharacterized protein (Microcystis aeruginosa MRC, UniProt B2G3D0)	isothermal titration calorimetry		pH 8.0, 25 °C	112 ± 52
CC[C@H](C)[C@H](N)C(=O)N[C@@H](CC(N)=O)C(=O)N[C@@H](CCCCN)C(=O)N[C@@H](CCC(N)=O)C(=O)NCC(=O)N[C@@H](CC(=O)O)C(=O)N[C@H](C(=O)N[C@H](C(=O)N[C@H](C(=O)N[C@@H](CC(C)C)C(=O)N[C@@H](CO)C(=O)N[C@@H](CC(N)=O)C(=O)NCC(=O)N[C@@H](CC(N)=O)C(=O)N[C@H](C(=O)N[C@@H](CCC(N)=O)C(=O)N[C@@H](CC(C)C)C(=O)N[C@H](C(N)=O)[C@@H](C)O)[C@@H](C)O)C(C)C)[C@@H](C)O)C(C)C	Leishmania secreted acid phosphatase	surface plasmon resonance		pH 6.5, 25 °C	15.6 ± 0.49
CSCC[C@H](NC(C)=O)C(=O)N[C@H]1CSCc2cc3cc(c2)CSC[C@@H](C(=O)N[C@H](C(=O)N[C@@H](C)C(=O)N[C@@H](Cc2ccc(O)cc2)C(=O)N[C@@H](CCCCN)C(=O)N[C@@H](Cc2ccc(O)cc2)C(=O)NCC(=O)N[C@@H](CO)C(=O)NCC(=O)N[C@@H](CO)C(=O)NCC(=O)N[C@@H](CO)C(=O)N[C@@H](CC(=O)O)C(=O)N[C@@H](Cc2ccc(O)cc2)C(=O)N[C@@H](CCCCN)C(=O)N[C@@H](CC(=O)O)C(=O)N[C@@H](CC(=O)O)C(=O)N[C@@H](CC(=O)O)C(=O)N[C@@H](CC(=O)O)C(=O)N[C@@H](CCCCN)C(N)=O)[C@@H](C)O)NC(=O)[C@H](Cc2ccccc2)NC(=O)[C@H](CCCCN)NC(=O)[C@H](CSC3)NC(=O)[C@H](Cc2ccccc2)NC(=O)[C@H](CC(N)=O)NC(=O)[C@H](CC(C)C)NC(=O)[C@H]([C@@H](C)O)NC1=O	FGFR3 (Homo sapiens, UniProt P22607)	binding, BLI			6.7

A few entries again:
Compound	target	assay	system	conditions	Kd [nM]
CC(=O)NC1C(O)CC(OC2C(O)C(CO)OC(OC3C(O)C(CO)OC(O)C3NC(C)=O)C2O)(C(=O)O)OC1C(O)C(O)CO (stereo not shown)	Intermedilysin, domain 4 (Streptococcus intermedius, UniProt Q9LCB8)	binding			568
Nc1nc2ncc(CNc3ccc(C(=O)N[C@@H](CCC(=O)NCCOCCOCCNC(=O)CN4CCN5CCN(CC4)CC(=O)[O][Al]([F])[O]C(=O)C5)C(=O)O)cc3)nc2c(=O)[nH]1 [fluorine-18 labelled]	FOLR1 (Homo sapiens, UniProt P15328)	radioligand saturation binding	KB xenograft homogenate		0.7
